Measurements gathered from unrelated publications.
Lines come from different studies, so protocols differ. “And” joins repeats or separate records; there may be more than shown. ± marks the error that the study gave.
rep papain-like protease: Replicase polyprotein 1ab, papain-like protease (rep, Porcine epidemic diarrhea virus, UniProt P0C6Y4)
STK16: Serine/threonine-protein kinase 16 (STK16, Homo sapiens, UniProt O75716)
Sequence of UniProt O75716 (whole entry, looked up): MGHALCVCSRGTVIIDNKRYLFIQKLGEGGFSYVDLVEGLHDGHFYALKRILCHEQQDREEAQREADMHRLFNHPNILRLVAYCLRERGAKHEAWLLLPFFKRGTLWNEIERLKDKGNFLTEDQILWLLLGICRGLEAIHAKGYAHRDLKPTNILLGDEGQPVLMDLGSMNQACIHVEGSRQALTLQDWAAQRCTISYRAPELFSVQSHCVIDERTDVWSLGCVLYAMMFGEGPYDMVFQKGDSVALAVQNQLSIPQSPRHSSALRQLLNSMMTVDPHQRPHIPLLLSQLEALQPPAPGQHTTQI
rep main protease: Replicase polyprotein 1ab, main protease (rep, Porcine epidemic diarrhea virus, UniProt P0C6Y4)
Sequence of UniProt Q8IWT6 (whole entry, unmodified, looked up): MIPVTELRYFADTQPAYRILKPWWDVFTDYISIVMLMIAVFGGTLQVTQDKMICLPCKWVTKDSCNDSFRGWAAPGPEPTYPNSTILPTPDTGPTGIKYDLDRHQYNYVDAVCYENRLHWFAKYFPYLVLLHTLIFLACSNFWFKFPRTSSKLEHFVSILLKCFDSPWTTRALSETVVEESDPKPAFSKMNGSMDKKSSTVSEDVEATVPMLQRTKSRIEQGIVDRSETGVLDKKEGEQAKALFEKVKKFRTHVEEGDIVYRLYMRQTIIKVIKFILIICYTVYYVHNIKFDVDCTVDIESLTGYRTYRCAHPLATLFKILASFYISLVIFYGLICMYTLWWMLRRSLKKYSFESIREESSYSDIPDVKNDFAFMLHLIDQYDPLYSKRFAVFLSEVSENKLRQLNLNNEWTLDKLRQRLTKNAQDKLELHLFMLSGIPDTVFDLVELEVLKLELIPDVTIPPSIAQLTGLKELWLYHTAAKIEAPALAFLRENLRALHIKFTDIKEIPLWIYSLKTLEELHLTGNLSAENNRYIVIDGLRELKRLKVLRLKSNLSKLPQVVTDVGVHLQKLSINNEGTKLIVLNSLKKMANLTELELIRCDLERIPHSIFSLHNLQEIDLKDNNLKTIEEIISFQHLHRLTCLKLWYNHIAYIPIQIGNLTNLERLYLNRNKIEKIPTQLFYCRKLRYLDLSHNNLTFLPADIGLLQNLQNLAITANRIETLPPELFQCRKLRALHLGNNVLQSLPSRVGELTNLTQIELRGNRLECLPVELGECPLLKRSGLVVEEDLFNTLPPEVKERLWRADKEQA
Sequence of UniProt P50613 (whole entry, looked up): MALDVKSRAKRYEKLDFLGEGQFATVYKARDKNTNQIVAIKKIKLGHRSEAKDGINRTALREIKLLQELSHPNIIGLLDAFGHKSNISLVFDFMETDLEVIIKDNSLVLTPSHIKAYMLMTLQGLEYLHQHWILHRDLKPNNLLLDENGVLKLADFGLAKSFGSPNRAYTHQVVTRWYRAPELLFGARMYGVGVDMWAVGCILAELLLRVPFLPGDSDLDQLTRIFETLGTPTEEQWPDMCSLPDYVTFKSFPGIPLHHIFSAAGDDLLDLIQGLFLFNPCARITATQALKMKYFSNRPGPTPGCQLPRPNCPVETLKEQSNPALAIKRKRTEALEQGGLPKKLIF
Sequence of UniProt P54646 (whole entry, looked up): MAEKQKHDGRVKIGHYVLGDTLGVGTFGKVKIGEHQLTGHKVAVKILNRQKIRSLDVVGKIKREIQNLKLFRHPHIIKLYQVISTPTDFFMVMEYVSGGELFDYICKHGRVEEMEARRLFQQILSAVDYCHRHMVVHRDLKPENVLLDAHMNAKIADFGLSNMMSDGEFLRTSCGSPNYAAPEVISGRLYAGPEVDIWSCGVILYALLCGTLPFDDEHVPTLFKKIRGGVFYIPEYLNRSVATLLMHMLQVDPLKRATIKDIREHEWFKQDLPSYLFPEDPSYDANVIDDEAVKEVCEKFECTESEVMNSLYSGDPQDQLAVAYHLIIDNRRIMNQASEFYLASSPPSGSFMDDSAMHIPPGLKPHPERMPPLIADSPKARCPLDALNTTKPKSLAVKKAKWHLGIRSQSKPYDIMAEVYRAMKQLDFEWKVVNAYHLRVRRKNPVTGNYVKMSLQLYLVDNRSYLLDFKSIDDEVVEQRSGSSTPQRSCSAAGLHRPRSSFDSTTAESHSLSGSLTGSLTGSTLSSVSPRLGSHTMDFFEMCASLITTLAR
Sequence of UniProt P08173 (whole entry, looked up): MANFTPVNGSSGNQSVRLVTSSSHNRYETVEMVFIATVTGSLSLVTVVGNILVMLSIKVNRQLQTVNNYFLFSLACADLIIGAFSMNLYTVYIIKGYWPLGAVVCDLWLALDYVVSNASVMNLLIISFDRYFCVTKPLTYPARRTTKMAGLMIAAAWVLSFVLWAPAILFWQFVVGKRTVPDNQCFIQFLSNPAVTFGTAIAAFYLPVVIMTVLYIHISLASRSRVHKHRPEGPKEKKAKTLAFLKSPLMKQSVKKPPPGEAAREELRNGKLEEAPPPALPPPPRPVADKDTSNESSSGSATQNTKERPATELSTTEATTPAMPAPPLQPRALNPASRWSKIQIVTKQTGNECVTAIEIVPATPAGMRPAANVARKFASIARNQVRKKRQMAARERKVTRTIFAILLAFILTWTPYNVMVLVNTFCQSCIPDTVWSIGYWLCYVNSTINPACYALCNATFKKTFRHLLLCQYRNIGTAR
Sequence of UniProt Q9H0H5 (whole entry, looked up): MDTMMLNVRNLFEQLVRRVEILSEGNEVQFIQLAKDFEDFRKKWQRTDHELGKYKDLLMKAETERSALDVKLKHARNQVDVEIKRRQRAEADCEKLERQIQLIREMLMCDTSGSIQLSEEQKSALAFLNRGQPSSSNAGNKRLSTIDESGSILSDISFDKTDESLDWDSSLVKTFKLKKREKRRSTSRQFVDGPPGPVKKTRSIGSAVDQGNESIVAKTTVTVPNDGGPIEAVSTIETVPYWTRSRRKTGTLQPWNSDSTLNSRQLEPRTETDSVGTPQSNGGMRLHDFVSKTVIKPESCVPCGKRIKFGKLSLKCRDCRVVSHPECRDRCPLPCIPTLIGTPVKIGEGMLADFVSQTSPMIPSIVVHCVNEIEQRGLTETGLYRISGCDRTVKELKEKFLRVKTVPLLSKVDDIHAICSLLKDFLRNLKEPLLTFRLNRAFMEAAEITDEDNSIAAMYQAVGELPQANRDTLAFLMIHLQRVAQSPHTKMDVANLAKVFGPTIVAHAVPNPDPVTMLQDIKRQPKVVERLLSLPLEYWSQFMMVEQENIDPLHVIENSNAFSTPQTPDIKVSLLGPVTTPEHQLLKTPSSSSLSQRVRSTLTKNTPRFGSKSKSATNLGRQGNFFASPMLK
Sequence of UniProt P28062 (whole entry, looked up): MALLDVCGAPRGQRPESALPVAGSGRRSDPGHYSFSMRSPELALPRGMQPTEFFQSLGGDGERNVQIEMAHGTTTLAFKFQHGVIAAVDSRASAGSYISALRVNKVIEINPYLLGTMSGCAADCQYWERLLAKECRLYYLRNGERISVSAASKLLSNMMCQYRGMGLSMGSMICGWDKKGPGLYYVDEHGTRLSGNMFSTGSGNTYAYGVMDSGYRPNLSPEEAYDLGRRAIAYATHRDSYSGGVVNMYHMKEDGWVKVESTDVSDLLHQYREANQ
Sequence of UniProt Q6PHR2 (whole entry, looked up): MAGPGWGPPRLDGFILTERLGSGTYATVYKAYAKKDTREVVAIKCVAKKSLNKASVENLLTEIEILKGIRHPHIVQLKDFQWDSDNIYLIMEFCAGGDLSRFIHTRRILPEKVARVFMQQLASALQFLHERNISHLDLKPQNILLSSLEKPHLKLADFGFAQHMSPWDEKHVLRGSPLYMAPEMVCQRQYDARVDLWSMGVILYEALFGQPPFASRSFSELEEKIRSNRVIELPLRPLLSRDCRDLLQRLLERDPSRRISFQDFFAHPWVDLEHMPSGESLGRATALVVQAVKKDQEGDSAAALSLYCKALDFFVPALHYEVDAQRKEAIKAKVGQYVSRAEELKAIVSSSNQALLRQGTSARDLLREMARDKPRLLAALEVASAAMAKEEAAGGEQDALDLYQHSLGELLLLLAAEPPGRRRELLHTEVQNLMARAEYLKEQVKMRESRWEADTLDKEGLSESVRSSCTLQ
Sequence of UniProt P20618 (whole entry, looked up): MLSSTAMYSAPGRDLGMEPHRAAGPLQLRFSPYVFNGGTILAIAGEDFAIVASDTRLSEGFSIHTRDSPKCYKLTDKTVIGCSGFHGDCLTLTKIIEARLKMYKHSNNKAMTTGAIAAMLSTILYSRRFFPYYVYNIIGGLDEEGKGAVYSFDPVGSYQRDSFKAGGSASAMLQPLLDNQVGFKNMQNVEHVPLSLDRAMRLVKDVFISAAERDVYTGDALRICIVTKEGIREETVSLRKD
Sequence of UniProt P18089 (whole entry, looked up): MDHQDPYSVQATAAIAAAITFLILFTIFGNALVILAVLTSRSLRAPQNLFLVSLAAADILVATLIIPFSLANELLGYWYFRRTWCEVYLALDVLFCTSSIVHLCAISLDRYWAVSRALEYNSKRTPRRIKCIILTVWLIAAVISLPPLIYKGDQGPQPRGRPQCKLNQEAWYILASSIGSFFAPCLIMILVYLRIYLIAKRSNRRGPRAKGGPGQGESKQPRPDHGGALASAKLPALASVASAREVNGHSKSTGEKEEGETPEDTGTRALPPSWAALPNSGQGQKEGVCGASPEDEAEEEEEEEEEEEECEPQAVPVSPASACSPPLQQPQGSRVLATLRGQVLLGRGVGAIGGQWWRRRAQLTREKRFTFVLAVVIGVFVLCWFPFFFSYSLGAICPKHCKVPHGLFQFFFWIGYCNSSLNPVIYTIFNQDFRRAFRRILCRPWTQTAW
Sequence of UniProt P35346 (whole entry, looked up): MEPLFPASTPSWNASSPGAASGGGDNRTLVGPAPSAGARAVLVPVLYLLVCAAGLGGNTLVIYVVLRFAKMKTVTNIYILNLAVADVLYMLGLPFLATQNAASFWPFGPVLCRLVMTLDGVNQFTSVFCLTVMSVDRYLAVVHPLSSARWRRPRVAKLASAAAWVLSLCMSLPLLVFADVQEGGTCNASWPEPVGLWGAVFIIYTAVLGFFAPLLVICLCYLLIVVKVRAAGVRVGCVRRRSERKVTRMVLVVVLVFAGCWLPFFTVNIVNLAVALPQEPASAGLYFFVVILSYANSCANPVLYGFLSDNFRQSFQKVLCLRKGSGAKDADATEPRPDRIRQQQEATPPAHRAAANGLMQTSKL

SMILES	target	test	system	setting	inhibition
COc1cc(C(=O)NS(=O)(=O)c2ccccc2C)ccc1Cc1cn(C)c2ccc(NC(=O)OC3CCCC3)cc12	Volume-regulated anion channel subunit LRRC8C, part LRRC8A IL1 chimera (LRRC8C, Homo sapiens, UniProt Q8TDW0, M48D)	ion current, inhibitor, whole-cell patch clamp	HCT LRRC8-/- cells	10 µM, constitutively open channel, +100 mV	38.1% and 35.8% and 30.2% and 37.2% and 42.1% and 22.8%
COc1cc(CNC(=O)c2cccc(C#N)c2)cc(Br)c1OC	rep papain-like protease	enzyme activity, inhibitor, FRET	–	10 µM	< 0%
CN1CCN(c2cc(-c3ccncc3)c(-c3ccc4ccccc4c3)nn2)CC1	Somatostatin receptor type 5 (SSTR5, Homo sapiens, UniProt P35346)	antagonist, FLIPR	–	10 µM	30.5%
Cl.Cl.c1cc2cc(C3=NCCN3)ccc2cc1C1=NCCN1	Rac GTPase-activating protein 1 (Homo sapiens, UniProt Q9H0H5)	GAP activity, malachite green phosphate	–	concentration not given, orthogonal retest	68.2%
Cc1cc(-c2ccnc3[nH]cc(F)c23)cc(F)c1[C@@]1(O)[C@H](C)CN(C2CCS(=O)(=O)CC2)C[C@@H]1C	STK16	ATP probe binding, KiNativ, measured: Lys2 site	HEK293T cell lysate	0.1 µM	-29.7%
COc1cc(CNC(=O)c2cc3ccccc3n2C)cc(Br)c1OC	rep main protease	enzyme activity, inhibitor, FRET	–	10 µM	< 0%
OCCCN1CC[C@@H]2C[C@H]1c1cc(-c3ccc(C(F)(F)F)cc3)ccc12	Alpha-2B adrenergic receptor (ADRA2B, Homo sapiens, UniProt P18089)	radioligand binding, PDSP competition binding	–	10 µM	< 50%
Cc1cc(-c2ccnc3[nH]cc(F)c23)cc(F)c1[C@@]1(O)[C@H](C)CN(C(=O)CN)C[C@@H]1C	STK16	ATP probe binding, KiNativ, measured: Lys2 site	HEK293T cell lysate	1 µM	56.8%
COc1cc2ncnc(Nc3ccc(Oc4ccccc4)cc3C)c2cc1OC	5'-AMP-activated protein kinase catalytic subunit alpha-2, with beta1 gamma1 (PRKAA2, Homo sapiens, UniProt P54646)	kinase activity, inhibitor	–	1 µM	4%
Cc1ccc(CNC(=O)c2ccccc2)cc1C	rep papain-like protease	enzyme activity, inhibitor, FRET	–	10 µM	< 0%
COc1cc(-c2cc(C(C)=O)n3ccccc23)cc(OC)c1Cn1ccnc1	SWI/SNF-related matrix-associated actin-dependent regulator of chromatin subfamily A member 2, isoform B (SMARCA2, Homo sapiens, UniProt P51531)	–	–	1 µM	-3.85%
CC[C@@H]1[C@H](F)C(=O)N[C@@H]1COc1nccc2cc(C(N)=O)c(OC)cc12	Cyclin-dependent kinase 7 (CDK7, Homo sapiens, UniProt P50613)	ATP-site probe binding, ActivX profiling	THP-1 cell lysate	0.01 mM, Lys1 site	-17%
O=C(Nc1cccc2c(=O)cc(-c3nnn[nH]3)oc12)c1ccc(OCCCCc2ccccc2)cc1	LRRC8A/LRRC8C (Homo sapiens, UniProt Q8IWT6+Q8TDW0, L134K/L136K)	ion current, whole-cell patch clamp	LRRC8-/- HCT cells	0.3 µM, L134K/L136K mutant, +100 mV	23% and 25.1% and 21.5% and 26.9% and 10.1% and -1.17%
CC(C)(C)NC(=O)C[C@H](NC(=O)C(=O)c1c[nH]c2ccccc12)C(=O)NCc1cccc(B(O)O)c1	Proteasome component C5/PSMB8 (Homo sapiens, UniProt P20618+P28062)	β5i proteasome activity, inhibitor	PBMC	concentration not given	inhibited
O=C(NO)c1ccc(CN2CCCCc3ccccc32)c(F)c1	Muscarinic acetylcholine receptor M4 (CHRM4, Homo sapiens, UniProt P08173)	radioligand binding, radioligand displacement	–	10 µM	16.1%
COc1cc(CNC(=O)c2ccncc2Cl)cc(Br)c1OC	rep main protease	enzyme activity, inhibitor, FRET	–	10 µM	< 0%
OO	Histone acetyltransferase p300, BHC core (EP300, Homo sapiens, UniProt Q09472)	enzyme activity, inhibitor	–	62.5 µM, p300, no DTT, added: [3H]acetyl-CoA	13 ± 8%
Cc1cc2c(cc1N1C(=O)c3cccc4c(CCCO)ccc(c34)C1=O)n(C)c(=O)n2C (racemic)	Nucleosome-remodeling factor subunit BPTF (BPTF, Homo sapiens, UniProt Q12830)	binding, BROMOscan binding	–	100 nM	72%
CN(C)C1CCN(CC#Cc2nn(C3CCCC3)c3nc(NCc4ccccc4)ncc23)C1 (stereo not drawn)	Cyclin-dependent kinase 7, with cyclin H, MAT1 (CDK7, Homo sapiens, UniProt P50613)	enzyme activity, inhibitor, Z'-LYTE	–	100 nM	-6%
COc1cc(CNC(=O)c2ccc3ccccc3c2)cc(Br)c1OC	rep main protease	enzyme activity, inhibitor, FRET	–	10 µM	< 0%
COc1ccc(F)cc1C(=O)NCc1ccc(-c2nn([C@@H](C)C(F)(F)F)c(N)c2C(N)=O)cc1	Serine/threonine-protein kinase ULK3 (ULK3, Homo sapiens, UniProt Q6PHR2)	probe binding, competitive chemoproteomics	human PBMCs	0.1 µM	25.6%
Cc1nn(-c2nc3c(F)cc(F)cc3s2)c(O)c1C(c1ccc(C(F)(F)F)cc1)c1c(C)nn(-c2nc3c(F)cc(F)cc3s2)c1O	Cyclic GMP-AMP synthase, catalytic domain; with DNA (CGAS, Homo sapiens, UniProt Q8N884)	cGAS phase separation, inhibitor	–	12.5 µM	79.6%
Cn1cc(-c2cnc3ccc(NC(=O)Nc4ccc(F)c(Br)c4)cc3n2)cn1	Mitogen-activated protein kinase kinase kinase 5 (MAP3K5, Homo sapiens, UniProt Q99683)	kinase binding, KiNativ profiling, measured: Lys2 peptide	PANC-1 lysate	5 µM	2.3%
COc1ccc(C(=O)Nc2ccc(N3CCC4(CC3)CCN(c3ccccn3)CC4)cc2)cc1	Alpha-synuclein, fibrils (SNCA, Homo sapiens, UniProt P37840)	radioligand binding	–	1 µM, 50 nM protein, added: [3H]BF2846 4 nM	65%

Some of these lines once more:
SMILES	target	test	system	setting	inhibition
COc1cc(CNC(=O)c2cc3ccccc3n2C)cc(Br)c1OC	rep main protease	enzyme activity, inhibitor, FRET	–	10 µM	< 0%
OCCCN1CC[C@@H]2C[C@H]1c1cc(-c3ccc(C(F)(F)F)cc3)ccc12	Alpha-2B adrenergic receptor (ADRA2B, Homo sapiens, UniProt P18089)	radioligand binding, PDSP competition binding	–	10 µM	< 50%
Cc1cc(-c2ccnc3[nH]cc(F)c23)cc(F)c1[C@@]1(O)[C@H](C)CN(C(=O)CN)C[C@@H]1C	STK16	ATP probe binding, KiNativ, measured: Lys2 site	HEK293T cell lysate	1 µM	56.8%
